Measured values from different studies.
Protocols differ between the studies behind these lines.

CN1C(=O)[C@@H](NC(=O)c2nnc(Cc3ccccc3)[nH]2)COc2cccnc21 has a Tmax of 3.52 h (human, plasma; oral, 200 mg once daily, day 14, median).
CCCCC1=NC2(CCCC2)C(=O)N1Cc1ccc(-c2ccccc2S(=O)(=O)Nc2noc(C)c2C)c(COCC)c1 gave a Tmax of 4.5 h (healthy adult volunteers, plasma; oral, 100 mg, 14 days repeated dosing, fasted, crushed tablet).
The Tmax of C=CCn1c(=O)c2cnc(Nc3ccc(N4CCN(C)CC4)cc3)nc2n1-c1cccc(C(C)(C)O)n1 is reported as 2 h (human; oral, 125 mg twice daily, monotherapy lead-in, -5 days; median).
CN1CCC[C@H](CN2c3ccccc3Sc3ccccc32)C1.Cl has a Tmax of 1 h (fasted female ICR mouse, kidney; oral, 16 mg/kg).
CCOc1c([C@H](C)n2nc(C)c3c(N)ncnc32)cc(Cl)c(F)c1[C@@H]1CNC(=O)C1 has a Tmax of 0.5 h (patients with DLBCL, plasma; oral, 30 mg, day 15, monotherapy).
With O=C(O)CCC(=O)O.[2H]C([2H])([2H])Oc1cc(C)c2[nH]ccc2c1CN1CC[C@@H](C2CC2)C[C@H]1c1ccc(C(=O)O)cc1 the Tmax was 3.5 h (human, plasma; 200 mg once daily, day 1, multiple ascending dose, median).
For CO[C@H]1C[C@@H]2CC[C@@H](C)[C@@](O)(O2)C(=O)C(=O)N2CCCC[C@H]2C(=O)O[C@H]([C@H](C)C[C@@H]2CC[C@@H](OC(=O)NCCOCCOCCOCCOCCOCCOCCOCCOCCC(=O)N3CCc4cc(Cn5nc(-c6ccc7oc(N)nc7c6)c6c(N)ncnc65)ccc4C3)[C@H](OC)C2)C[C@@H](O)[C@H](C)/C=C(\C)[C@@H](O)[C@@H](OC)C(=O)[C@H](C)C[C@H](C)/C=C/C=C/C=C/1C, the Tmax was 0.75 h (human, plasma; intravenous, 1.6 mg, cycle 1 day 1, arithmetic mean).
With NC1(C(=O)N[C@@H](CCO)c2ccc(Cl)cc2)CCN(c2nc[nH]c3nccc2-3)CC1 the Tmax was 2 h (LC-MS/MS, non-compartmental; human patients, plasma; 160/400 mg cohort, cycle 2, geometric mean, together with: enzalutamide).
Cl.[2H]C([2H])([2H])CC(=O)c1cnc(NC(=O)C2CC2)cc1Nc1cccc(-c2ncn(C([2H])([2H])[2H])n2)c1OC has a Tmax of 2.12 h (median; human; oral, 40 mg twice daily, day 7, fed, liquid, multiple dose).
The Tmax of CCn1cc(C(=O)N2CCOCC2)c(=O)c2cc(NC3Cc4ccccc4C3)cnc21 is reported as 3.5 h (human male, fed, plasma; oral, 900 mg twice daily, day 7, tablet, median).
CN[C@H](CC(C)C)C(=O)N[C@H]1C(=O)N[C@@H](CC(N)=O)C(=O)N[C@H]2C(=O)N[C@H]3C(=O)N[C@H](C(=O)N[C@H](C(=O)O)c4cc(O)cc(O)c4-c4cc3ccc4O)[C@H](O)c3ccc(c(Cl)c3)Oc3cc2cc(c3O[C@@H]2O[C@H](CO)[C@@H](O)[C@H](O)[C@H]2O[C@H]2C[C@](C)(N)[C@H](O)[C@H](C)O2)Oc2ccc(cc2Cl)[C@H]1O gave a Tmax of 8 h (C57BL/6N mouse H3, faeces; po, 0.5 mL, 20 mg/mL solution).

Repeated from above:
The Tmax of CCn1cc(C(=O)N2CCOCC2)c(=O)c2cc(NC3Cc4ccccc4C3)cnc21 is reported as 3.5 h (human male, fed, plasma; oral, 900 mg twice daily, day 7, tablet, median).
